Measured values pooled from the literature.
Each numbered part is a random draw from the data of one study; scales do not carry over between parts.

Set 1 — technique: competition protein-binding microarray; form: double-stranded DNA, one strand shown; sample: in vitro; concentration: 2 µM; with: Pho4 competitor, 0.05 µM; direction: higher = stronger binding
Target: Centromere-binding protein 1, full length, His-tagged (CBF1, Saccharomyces cerevisiae, UniProt P17106, residues 1-351)
UniProt P17106, sequence (whole entry, looked up): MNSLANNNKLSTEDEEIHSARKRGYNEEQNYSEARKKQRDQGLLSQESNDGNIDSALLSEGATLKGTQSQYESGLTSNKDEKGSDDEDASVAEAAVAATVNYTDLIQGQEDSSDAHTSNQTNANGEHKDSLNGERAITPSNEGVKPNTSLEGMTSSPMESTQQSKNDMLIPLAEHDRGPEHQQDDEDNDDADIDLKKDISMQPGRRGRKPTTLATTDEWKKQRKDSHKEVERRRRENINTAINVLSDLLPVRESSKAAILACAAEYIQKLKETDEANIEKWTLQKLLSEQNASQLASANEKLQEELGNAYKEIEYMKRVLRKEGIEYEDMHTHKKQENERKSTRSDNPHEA
Setting: whole 60-bp probe, lowest competitor level
`GAACCGGTAAGCCTACACGTCTAGGTGCATTCAACGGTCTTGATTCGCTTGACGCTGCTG` has a fluorescence intensity of 54.6 a.u.
`CAACTTGATGGTCTACACGTTGTTTCAAGTGCATACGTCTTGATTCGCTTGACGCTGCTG` has a fluorescence intensity of 91.7 a.u.
For `AAATCAATGGGCTCAGCTCATCTTGAAAAGCTCACTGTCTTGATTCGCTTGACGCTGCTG`, the fluorescence intensity was 58.5 a.u.
With `CTTTCCCGATCTTGAGGTGTGGGTGTAGCACATTTGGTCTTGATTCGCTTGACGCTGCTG` the fluorescence intensity was 71.1 a.u.
For `AAAGCGGTAATTTGTCACCTAACTTCACATATCTATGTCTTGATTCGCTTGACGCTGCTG`, the fluorescence intensity was 71 a.u.
`CGGCGCTAAACTCTTCACGTGAGGAGTTCACTAGAGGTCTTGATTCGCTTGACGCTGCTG` gave a fluorescence intensity of 1440 a.u.
For `TCCGATGGAAACGAGCATGTGGCCGATAGATCTAAAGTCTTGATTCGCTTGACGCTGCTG`, the fluorescence intensity was 106 a.u.
With `TCAGGATCTGGCTGGCACATGATGCGGAAGCAGCGGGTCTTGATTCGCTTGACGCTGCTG` the fluorescence intensity was 299 a.u.
`CTTTCCCGATCTTGTCACTCTACTTTAGCACATTTGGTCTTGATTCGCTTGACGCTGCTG` has a fluorescence intensity of 73.1 a.u.
For `GGCGGGTTTCTTCGGCACGCACAGGAGGCACCCCAGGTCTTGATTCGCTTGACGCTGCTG`, the fluorescence intensity was 65.4 a.u.

Set 2 — technique: RNA Bind-n-Seq; form: RNA; sample: in vitro; concentration: 20 nM; setting: 6-mer, flanks averaged, single round; with: 150 mM KCl; reference: input library; direction: higher = stronger binding
Target: TAR DNA-binding protein 43, full length, His tag (TARDBP, Homo sapiens, UniProt Q13148, residues 1-414)
`UGCCUU`: “6-mer enrichment (R)” 0.687.
`CUACGU` — result for “6-mer enrichment (R)”: 0.625.
For `AUGUGU`, “6-mer enrichment (R)” read 1.16.
Under “6-mer enrichment (R)”, `GAAGAU` is recorded as 0.835.
`GCGUUU`: “6-mer enrichment (R)” 0.809.
Under “6-mer enrichment (R)”, `UCGGUA` is recorded as 0.74.
`GAGUCA`: “6-mer enrichment (R)” 0.857.
For `GACCAC`, “6-mer enrichment (R)” read 0.725.
For `GGGCCG`, “6-mer enrichment (R)” read 4.03.

Set 3 — technique: Sort-seq; item: YFP reporter; sample: E. coli; setting: PhoQ-PhoP variant library; with: 10 µM Mg2+; reference: high Mg2+ state; direction: higher = stronger signaling
Molecule: PhoQ, residues 284 288 289 292 302 303 SNSSNI
PhoP, residues 12 14 15 18 19 QYCSL (Escherichia coli, UniProt P23836) — fold induction: 10.4.
It gave 2.22 for fold induction (PhoP, residues 12 14 15 18 19 STHWV (Escherichia coli, UniProt P23836)).
It gave 1.14 for fold induction (PhoP, residues 12 14 15 18 19 SHWTV (Escherichia coli, UniProt P23836)).

Other studies, line by line — technique: cross-linking MS; sample: cell fractions; with: DSSO
For `ENO1 (Homo sapiens, UniProt P06733)`, cross-linked residues read “K330 to K119” (ATP6V0A1 (Homo sapiens, UniProt Q93050)).
Under cross-linked residues, `DDX50 (Homo sapiens, UniProt Q9BQ39)` is recorded as “K524 to K600” (DDX21 (Homo sapiens, UniProt Q9NR30)).
